Experimental data collected from several papers.
Parts stem from different laboratories: compare values within a part only. Several values in a cell are separate wells, animals, samples, runs or records. Substitutions count along the parent as printed.

Study 1
Target: CCNB2, cyclin fold, Cln2 fusion (human)
Method: yeast growth competition, sequencing
Sample: yeast
Notes: weak parent motif
Relative to: not given
Direction: higher = stronger binding
Starting sequence: CDC6 docking peptide (human); TLKGRRLVFDNQL
Change	normalised enrichment score
TLKGRRLVFDNQP [L13P]	0.536
TLKGRRLVFINQL [D10I]	0.766
TLKNRRLVFDNQL [G4N]	0.0145
TLKGRRLVFPNQL [D10P]	-0.395
TLKGRMLVFDNQL [R6M]	0.432
TLKGRRLVFDNHL [Q12H]	0.396
TLKIRRLVFDNQL [G4I]	0.75
TVKGRRLVFDNQL [L2V]	0.151
TLKGRRQVFDNQL [L7Q]	0.395
TLRGRRLVFDNQL [K3R]	0.728
TLGGRRLVFDNQL [K3G]	-0.00342

Study 2
Target: RING finger protein unkempt homolog, zinc fingers 1-6, SBP tag (UNK, Homo sapiens, UniProt Q9C0B0, residues 30-357)
Sequence of UniProt Q9C0B0 (30-357, looked up): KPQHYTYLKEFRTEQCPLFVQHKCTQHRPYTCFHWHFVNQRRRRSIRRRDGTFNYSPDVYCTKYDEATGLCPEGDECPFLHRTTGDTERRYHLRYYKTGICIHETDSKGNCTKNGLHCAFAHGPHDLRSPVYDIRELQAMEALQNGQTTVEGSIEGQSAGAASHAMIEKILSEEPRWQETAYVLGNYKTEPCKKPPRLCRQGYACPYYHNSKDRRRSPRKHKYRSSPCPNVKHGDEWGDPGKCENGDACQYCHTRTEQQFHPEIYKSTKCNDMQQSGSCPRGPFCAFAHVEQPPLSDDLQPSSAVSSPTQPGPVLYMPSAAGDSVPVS
Method: RNA Bind-n-Seq
Form: RNA
Sample: in vitro
Tested at: 100 nM
Notes: RNA with constant flanks, vertebrate orthologous sites, ends assumed
Relative to: input RNA pool
Direction: higher = stronger binding
Oligonucleotide	bound/input enrichment [ratio]
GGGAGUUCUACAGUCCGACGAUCAGAAAAUUAUAACCAAGAAUCAGAAGGUAGAAGUACAGGACCAUGGUUAUCAUCUUCACUUAGAAAUAGAUGUACACCUUUGUUCUCUAGAAGGAGGCGAGAGGGUCGAGAUGAGUCUUCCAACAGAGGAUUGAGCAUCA	0.595
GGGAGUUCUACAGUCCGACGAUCCUUUUAAUCGACUAUGUCUGUAAAUGUAUAUUGAGAGAAUUGAAGUAUUUAUAAACAGAGUGAUUUAUUUAAGGAAAAGCUUAUCCCUCUUUCCUAUGGUGGUCUGUGUUAAUUCCAUUUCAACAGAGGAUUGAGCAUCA	0.14
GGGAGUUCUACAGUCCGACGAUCUGGGGACAUACUCCAGGGAGCUGCCGGGCGCUUAGCGUUGUUUGAUUUAUGACCUUGACAUGGUAGGUAGGCUUGUUUUUUUUUUUAAUUUAAAAAUAUUGACUUAUUCACAAAAAUUUACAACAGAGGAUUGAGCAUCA	1.32
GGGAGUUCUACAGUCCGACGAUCAUCUCUCAGUGACAGCAUUCCAUCUGUAGCUGACUCCCACUCAAGUCAUUUCUCCGAAUUUAGUUGCUCUGACUUGGAAAGCAUGAAAACUUCCUGUAGCCAUGGCUCCAAUGAUUAUCACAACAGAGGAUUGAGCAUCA	0.538
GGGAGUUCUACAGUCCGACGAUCAUCCCUCAGUGACAGUAUGCCAUCUGUAGCAGAUUCCCACUCUAGUCAUUUUUCUGAAUUUAGUUGUUCUGACCUAGAAAGCAUGAAAACUUCUUGCAGUCAUGGUUCCAGUGAUUAUCACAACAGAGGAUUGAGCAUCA	2.56
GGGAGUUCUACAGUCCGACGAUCUUACAGUCAUUGAUGGACUCUAUUUUUUUAUUAUUACUUGGACCUUGGUCGUUUUUAUACUAGCAAGAUGUCUUGUUUUAAUUUGUGUUUUUUUUGGGGGAGGGAGUGAACUUGCUGAUUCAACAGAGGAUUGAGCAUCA	2.67
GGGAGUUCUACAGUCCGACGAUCAAUAAUGAAUAGUAUUAAAGAAACAUUCUCGUCUUCCUUUACCUUUAAUCCCCUAAUACCUAGUCUACUUUUUAAAUUUUCAGACUUCACUGCUUUUUGAAUUCAUAAUUCCAAUUAUCACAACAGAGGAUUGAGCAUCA	2.33
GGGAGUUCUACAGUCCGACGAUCUUCAUUACCUGAGCAGAGUGGAGGUGACGGAGUUUGAAGACAUCAAGUCAGGCUACAGAAUAGAUUUUUCUCGUUAAUUUUUCCAUUUCUGAUGUGUGCGUGGUGUGUAGUCUUACUGCACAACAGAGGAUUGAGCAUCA	1.06
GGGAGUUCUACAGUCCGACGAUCCUGCUUUAUGGGCCUCGCAGAGUUGAAAUAAUGGAAGAGGAAAGUGAACAGUAAACAUUUUAGUAUUUAUGCUUAGGUGUGAAAUGUUACUCGUUGAUCAUUUCUACAAUCCAGAGCUUUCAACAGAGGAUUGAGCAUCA	0.444
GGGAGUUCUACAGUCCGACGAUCAGCUUCAGGUGAUAUUUGGCCUGGUCUUUCAGCAUAUGAUAACAGCCCAAGGUCUCCUCAUAGUCCCUCUAUUGCCUCCCCACCUAGUCAGAGUUCUUCAUGUUCUGAUGCUCACUUACUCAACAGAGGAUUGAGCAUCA	0.603
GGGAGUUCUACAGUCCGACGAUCGUGUGUGGGGUAGCCUUGGCCCCUGCCUUGGCCUUGCCUCUCUUCCCUGUCACCUGCCCCUAGUUAUUUUUUUUUUGACCACCACGUGAUUAUGGUCGGUGCUGCCUCCCCCCCGACCUGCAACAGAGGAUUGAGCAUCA	11

Study 3
Target: Sal-like protein 4, full length isoform A (SALL4, Homo sapiens, UniProt Q9UJQ4, residues 1-1053)
Sequence of UniProt Q9UJQ4 (whole entry, looked up): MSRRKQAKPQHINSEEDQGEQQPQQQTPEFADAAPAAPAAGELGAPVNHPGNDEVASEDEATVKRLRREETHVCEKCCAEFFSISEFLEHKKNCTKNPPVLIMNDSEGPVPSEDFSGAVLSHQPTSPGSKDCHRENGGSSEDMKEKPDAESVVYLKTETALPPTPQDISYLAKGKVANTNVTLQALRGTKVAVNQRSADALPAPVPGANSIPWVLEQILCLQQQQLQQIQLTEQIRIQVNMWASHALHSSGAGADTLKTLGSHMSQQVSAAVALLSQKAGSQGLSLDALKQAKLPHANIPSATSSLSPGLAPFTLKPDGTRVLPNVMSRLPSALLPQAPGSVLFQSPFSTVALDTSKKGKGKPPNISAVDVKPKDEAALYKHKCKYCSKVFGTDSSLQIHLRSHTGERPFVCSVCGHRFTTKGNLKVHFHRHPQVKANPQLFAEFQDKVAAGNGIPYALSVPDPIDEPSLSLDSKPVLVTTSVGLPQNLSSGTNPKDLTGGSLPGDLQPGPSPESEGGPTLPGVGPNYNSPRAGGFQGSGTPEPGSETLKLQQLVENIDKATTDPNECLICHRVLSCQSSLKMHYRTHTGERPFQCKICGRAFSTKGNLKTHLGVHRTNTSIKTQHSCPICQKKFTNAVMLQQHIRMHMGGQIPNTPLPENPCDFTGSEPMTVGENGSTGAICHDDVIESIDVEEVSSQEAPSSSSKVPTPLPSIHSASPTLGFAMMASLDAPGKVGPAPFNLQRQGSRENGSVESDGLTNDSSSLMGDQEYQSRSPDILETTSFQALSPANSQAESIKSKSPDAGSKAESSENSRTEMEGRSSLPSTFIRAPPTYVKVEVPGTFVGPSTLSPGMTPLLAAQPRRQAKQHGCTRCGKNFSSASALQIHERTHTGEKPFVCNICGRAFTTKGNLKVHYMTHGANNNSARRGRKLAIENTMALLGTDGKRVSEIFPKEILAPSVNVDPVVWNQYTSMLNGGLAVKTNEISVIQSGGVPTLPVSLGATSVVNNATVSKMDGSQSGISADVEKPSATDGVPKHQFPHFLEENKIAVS
Method: universal PBM
Form: double-stranded DNA, one strand shown
Sample: in vitro
Tested at: 600 nM
Notes: 8-mer, flanks averaged, mean of replicates
Direction: higher = stronger binding
Oligonucleotide	E-score
CCCCGCAC	-0.356
GAGCGACA	0.0102
CGCCGGAG	-0.241
AAAGGAAC	0.0525
TAAAATAA	0.33
AAACGGAG	-0.0307
ACGAGTCT	0.0296
CGGTCTAG	-0.241
AATGGCTA	0.158
CCAGAACC	-0.178
CATCGTCC	-0.0863
GACGGATC	-0.163
CCACCAGG	-0.381
CGGGAGCC	-0.382
AGCAATGA	0.0156

Other studies, line by line
Molecule	target	test	system	conditions	scale	endpoint	value
PhoQ, residues 284 288 289 292 302 303 DDMDFR	PhoP, residues 12 14 15 18 19 LWHSL (Escherichia coli, UniProt P23836)	Sort-seq, item: YFP reporter	E. coli	PhoQ-PhoP variant library, added: 10 µM Mg2+	relative to: high Mg2+ state, higher = stronger signaling	fold induction	0.681 and 0.657

For quick reference, copied from above (study 3):
Oligonucleotide	E-score
CGGGAGCC	-0.382
CGGTCTAG	-0.241
AGCAATGA	0.0156
